Values quoted from earlier work as cited in several papers.
Lines come from different studies, so protocols differ. ± gives the spread as reported. In brackets after ≈: the same amount, converted by molar mass.

| Compound | assay | system | setting | how to read | endpoint | value |
| --- | --- | --- | --- | --- | --- | --- |
| [Cu+2].c1cc2nc(c1)CNCCNCCNC2 | cyclic voltammetry | DMF | scan rate 100 mV/s | relative to: Fc/Fc+ | anodic peak potential | -902 mV |
| C[C@@H]1O[C@@H](O[C@@H]2[C@@H](O)[C@H](O)[C@@H](CO)O[C@H]2c2c(O)cc(O)c3c(=O)cc(-c4ccc(O)cc4)oc23)[C@H](O)[C@H](O)[C@H]1O |  |  |  |  | logP | -0.9 |
| Ic1cc2nc(c1)CNCCNCCNC2.[Cu+2] | cyclic voltammetry | DMF | scan rate 100 mV/s |  | peak separation ΔE | 96 mV |
| Cc1ccc2c(c1)nc(CCN1C(=O)c3cccc4cccc(c34)C1=O)n2-c1ccncc1 |  | Sprague-Dawley rat | oral, 10 mg/kg |  | half-life | 1.8 h |
| FC(F)(F)c1cc2nc(c1)CNCCNCCNC2.[Cu+2] | cyclic voltammetry | DMF | scan rate 100 mV/s | relative to: Fc/Fc+ | half-wave potential | -914 mV |
| COc1ccc(Nc2nc(Nc3ccc(OCC[18F])cc3)ncc2Br)cc1 |  | S180 tumour-bearing mice | intravenous, 60 min | relative to: tumour over bone | tumour to tissue ratio | 0.78 |
| Clc1cc2nc(c1)CNCCNCCNC2.[Cu+2] | cyclic voltammetry | DMF | scan rate 100 mV/s |  | peak separation ΔE | 101 mV |
| C/C(N)=N/C(=N\S(=O)(=O)c1ccc(C(F)(F)F)cc1)N1C[C@H](c2ccccc2)C(c2ccc(Cl)cc2)=N1 |  | wild-type mice, bleomycin ear model, serum | 10 mg/kg |  | Cmax | 5000 to 10000 nM |
| O=C(O)CCCCC1(N(CC(=O)O)CC(=O)O)CN(CC(=O)O)CCN(CC(=O)O)C1 | pH-potentiometry, refers to: logK1H | 0.15 M NaCl | 25 °C |  | protonation constant (log) | 10.5 |
| CN1CCN(c2ccc3[nH]c(-c4ccc5[nH]c(-c6ccc(OCCCCNC(=O)c7ccc8c(c7)C7(OC8=O)c8ccc(N(C)C)cc8C(C)(C)c8cc(N(C)C)ccc87)cc6)nc5c4)nc3c2)CC1 |  | PBS with 0.1% SDS |  |  | fluorescence quantum yield | 0.614 ± 0.002 |
| Cc1cc(NC(=O)Cn2nnc(-c3cccc(F)c3)n2)n(C2CCCCC2)n1 |  | liver microsomes |  |  | metabolic stability | unstable |
| c1ccc2cc3c(ccc4ccccc43)cc2c1 |  |  | experimental mean or OPERA estimate |  | log Kow | 5.6 |
| COc1cc2nc(c1)CNCCNCCNC2.[Cu+2] | cyclic voltammetry | DMF | scan rate 100 mV/s | relative to: Fc/Fc+ | cathodic peak potential | -1070 mV |
| CC(C)OC(=O)c1ccc(O)cc1 |  |  | pH 7.4 |  | logD | 2.77 |
| CC1(N(CC(=O)O)CC(=O)O)CN(CC(=O)O)CCN(CC(=O)O)C1 | pH-potentiometry, refers to: logK4H | 0.15 M NaCl | 25 °C |  | protonation constant (log) | 2.33 |
| O=C(O)CN1CCNCCN(CC(=O)O)Cc2cccc(n2)C1 |  |  | 0.15 M NaCl |  | sum of log KiH | 23.7 |
| CCCCCCCCCOC(=O)c1ccc(O)cc1 | octanol-water |  |  |  | logP | 5.66 |

| Compound | assay | system | setting | how to read | endpoint | value |
| --- | --- | --- | --- | --- | --- | --- |
| N=C(NCCCCNc1nc(N)nc(N)n1)c1ccc(C(=N)NCCCCNc2nc(N)nc(N)n2)cc1 |  | mouse |  |  | maximum non-toxic dose | 50 to 100 mg/kg |
| O=C(O)CN1CCNCCNCCN(CC(=O)O)CC1 |  | 0.1 M KCl |  |  | log KH3 | 3.74 |
| CC[C@H](C)[C@H](NC(=O)[C@H](Cc1ccc(O)cc1)NC(=O)[C@@H](NC(=O)[C@H](CCCNC(=N)N)NC(=O)[C@@H](N)CC(=O)O)C(C)C)C(=O)N[C@@H](Cc1c[nH]cn1)C(=O)N1CCC[C@H]1C(=O)O | ELISA | patients with advanced cancer, plasma | dose not given |  | Tmax | ~1 h |
| CN1CCN(c2ccc3[nH]c(-c4ccc5[nH]c(-c6ccc(OCCCCNC(=O)c7ccc8c(c7)C(=O)OC87c8ccc(N(C)C)cc8C(C)(C)c8cc(N(C)C)ccc87)cc6)nc5c4)nc3c2)CC1 |  | PBS |  |  | fluorescence quantum yield | 0.052 ± 0.004 |
| COC1=CC(c2ccc[nH]2)=NC1=CNC1CCCCCC1.Cl | metabolic stability | mouse liver microsomes |  |  | half-life | 0.0867 h |
| CCC(C)OC(=O)c1ccc(O)cc1 (stereo not shown) |  |  | pH 7.4 |  | logD | 2.9 |
| Oc1cccc(-c2cccc(O)n2)n1.[Cl-].[Cl-].[Ru+2].c1cnc2c(c1)ccc1cccnc12.c1cnc2c(c1)ccc1cccnc12 |  | CD3OD | acidic form |  | singlet oxygen quantum yield | 0.048 |
| CCN(CC)CCNC(=O)c1c(C)[nH]c(/C=C2\C(=O)Nc3ccc(F)cc32)c1C |  | human | concentration not given |  | Cmax | 181 nM |
| COc1cccc2c1C(=O)c1c(O)c3c(c(O)c1C2=O)C[C@@](O)(C(=O)CO)C[C@@H]3O[C@H]1C[C@H](N)[C@H](O)[C@H](C)O1 |  |  |  |  | water solubility | 243 µg/mL (≈ 447 µM) |
| CCn1c(=O)c(-c2cc(NC(=O)Nc3ccccc3)c(F)cc2Br)cc2cnc(N)cc21 |  | patients | 150 mg once daily, at least 15 days, geometric mean |  | trough concentration | 546 ng/mL |
| COc1ccc2c(c1)CN(C(=O)CCN1CCC(Cc3ccccc3)CC1)CCS2 |  | dog sterile pericarditis AF model | dose not given |  | plasma concentration | 750 ng/mL |
| CC[C@H](C)[C@H](NC(=O)[C@H](Cc1ccccc1)NC(=O)[C@H](CCC(=O)O)NC(=O)[C@H](CCCCN)NC(=O)[C@H](C)NC(=O)[C@H](C)NC(=O)[C@H](CCC(N)=O)NC(=O)CNC(=O)[C@H](CCC(=O)O)NC(=O)[C@H](CC(C)C)NC(=O)[C@H](Cc1ccc(O)cc1)NC(=O)[C@H](CO)NC(=O)[C@H](CO)NC(=O)[C@@H](NC(=O)[C@H](CC(=O)O)NC(=O)[C@H](CO)NC(=O)[C@@H](NC(=O)[C@H](Cc1ccccc1)NC(=O)[C@@H](NC(=O)CNC(=O)[C@@H](N)CCC(=O)O)[C@@H](C)O)[C@@H](C)O)C(C)C)C(=O)N[C@@H](C)C(=O)N[C@@H](Cc1c[nH]c2ccccc12)C(=O)N[C@@H](CC(C)C)C(=O)N[C@H](C(=O)N[C@@H](CCCCN)C(=O)NCC(=O)N[C@@H](CCCNC(=N)N)C(N)=O)C(C)C | refers to: GLP-1 metabolite | plasma |  |  | fraction of circulating GLP-1 | ~60% |
| CN1CCN(c2ccc3[nH]c(-c4ccc5[nH]c(-c6ccc(OCCCCNC(=O)c7ccc8c(c7)C(=O)OC87c8ccc(N(C)C)cc8[Si](C)(C)c8cc(N(C)C)ccc87)cc6)nc5c4)nc3c2)CC1 |  | PBS with 0.1% SDS |  |  | fluorescence quantum yield | 0.538 ± 0.004 |
| O=C1NC(=O)/C(=C/c2ccc3ncnc(N4CCC(F)CC4)c3n2)S1 |  | mouse |  |  | half-life | 3 h |
| O=C(O)CN1CCN(CC(=O)O)CCN(CC(=O)O)CC1 | protonation constants |  | 0.1 M Me4NCl |  | sum of log KiH | 24.1 |
| CNc1nc(N)nc2c1ncn2[C@@H]1O[C@H](CO)[C@@H](O)[C@@]1(C)F |  | plasma |  |  | plasma half-life | ~19 h |
| NC[C@H](N)C(=O)O |  |  |  |  | pKa | 9.57 |
